{"data": "Measured values collected from several papers", "organism": "Escherichia coli", "note": "Compare with care: the assays were run in different laboratories. ± marks the error that the study gave."}
{"SMILES": "O=C(O)[C@@H]1Cc2c([nH]c3ccccc23)[C@@H](c2ccccc2)N1", "test system": "BL21(DE3)", "setting": "250 µM, 18 h", "measurement": "growth inhibition", "value": "0%"}
{"SMILES": "CCCCCCCC(=O)NCC(=O)N[C@@H](CC(C)C)C(=O)N[C@@H](CC(C)C)C(=O)N[C@@H](CCCCN)C(=O)N[C@@H](CCCNC(=N)N)C(=O)N[C@H](C(=O)N[C@@H](CCCCN)C(=O)N[C@H](C(=O)N[C@@H](CC(C)C)C(=O)N[C@@H](CC(C)C)C(N)=O)[C@@H](C)O)[C@@H](C)CC", "test": "checkerboard", "test system": "ATCC 25922", "setting": "with: polymyxin B", "measurement": "FIC index", "value": 0.5}
{"SMILES": "CC[C@H](C)[C@H](NC(=O)[C@H](CCCCN)NC(=O)[C@H](CCCCN)NC(=O)[C@H](CC(C)C)NC(=O)[C@H](CCCCN)NC(=O)[C@H](CCC(=O)O)NC(=O)[C@H](CCCCN)NC(=O)[C@@H](NC(=O)[C@H](CCCCN)NC(=O)[C@H](CC(N)=O)NC(=O)[C@H](CCCNC(=N)N)NC(=O)[C@H](Cc1ccccc1)NC(=O)[C@H](CCCCN)NC(=O)[C@H](CCCNC(=N)N)NC(=O)[C@H](CC(C)C)NC(=O)[C@H](CCCNC(=N)N)NC(=O)[C@H](CCCCN)NC(=O)[C@H](CCCNC(=N)N)NC(=O)[C@H](CC(C)C)NC(=O)CN)[C@@H](C)CC)C(=O)NCC(=O)N[C@@H](CCC(N)=O)C(=O)N[C@@H](CCCCN)C(=O)N[C@H](C(=O)N[C@@H](CCC(N)=O)C(=O)NCC(=O)N[C@@H](Cc1ccccc1)C(=O)N[C@H](C(=O)N1CCC[C@H]1C(=O)N[C@@H](CCCCN)C(=O)N[C@@H](CC(C)C)C(=O)N[C@@H](C)C(=O)N1CCC[C@H]1C(=O)N[C@@H](CCCNC(=N)N)C(=O)N[C@H](C(=O)N[C@@H](CC(=O)O)C(=O)N[C@@H](Cc1ccc(O)cc1)C(=O)O)[C@@H](C)O)C(C)C)[C@@H](C)CC", "test": "inhibition zone", "test system": "CIP. J14b", "measurement": "lethal concentration", "value": "2.19 µM"}
{"SMILES": "CCCC(=O)NCC(=O)N[C@@H](CC(C)C)C(=O)N[C@@H](CC(C)C)C(=O)N[C@@H](CCCCN)C(=O)N[C@@H](CCCNC(=N)N)C(=O)N[C@H](C(=O)N[C@@H](CCCCN)C(=O)N[C@H](C(=O)N[C@@H](CC(C)C)C(=O)N[C@@H](CC(C)C)C(=O)NCCCC[C@H](NC(=O)[C@H](CC(C)C)NC(=O)[C@H](CC(C)C)NC(=O)[C@@H](NC(=O)[C@H](CCCCN)NC(=O)[C@@H](NC(=O)[C@H](CCCNC(=N)N)NC(=O)[C@H](CCCCN)NC(=O)[C@H](CC(C)C)NC(=O)[C@H](CC(C)C)NC(=O)CNC(=O)CCC)[C@@H](C)CC)[C@@H](C)O)C(=O)NCCCC[C@H](NC(=O)[C@H](CCCCNC(=O)[C@H](CC(C)C)NC(=O)[C@H](CC(C)C)NC(=O)[C@@H](NC(=O)[C@H](CCCCN)NC(=O)[C@@H](NC(=O)[C@H](CCCNC(=N)N)NC(=O)[C@H](CCCCN)NC(=O)[C@H](CC(C)C)NC(=O)[C@H](CC(C)C)NC(=O)CNC(=O)CCC)[C@@H](C)CC)[C@@H](C)O)NC(=O)[C@H](CC(C)C)NC(=O)[C@H](CC(C)C)NC(=O)[C@@H](NC(=O)[C@H](CCCCN)NC(=O)[C@@H](NC(=O)[C@H](CCCNC(=N)N)NC(=O)[C@H](CCCCN)NC(=O)[C@H](CC(C)C)NC(=O)[C@H](CC(C)C)NC(=O)CNC(=O)CCC)[C@@H](C)CC)[C@@H](C)O)C(N)=O)[C@@H](C)O)[C@@H](C)CC", "test": "checkerboard", "test system": "ATCC 25922", "setting": "with: gentamicin", "measurement": "FIC index", "value": 0.25}
{"SMILES": "CCCCCCCCCCCCCCCC(=O)N[C@@H](CCCCN)C(=O)N[C@@H](CCCCN)C(=O)N(CCCCN)CC(=O)N[C@@H](CCCCN)C(=O)N[C@@H](CCCCN)C(N)=O", "test system": "K12", "measurement": "MBC", "value": "64 µg/mL"}
{"SMILES": "CN1CC(=O)N=C1N.C[C@H](CCC(=O)O)[C@H]1CC[C@H]2[C@@H]3CC[C@@H]4C[C@H](O)CC[C@]4(C)[C@H]3C[C@H](O)[C@]12C", "test system": "TISTR 117", "setting": "1 mg per disc, 18 to 24 h, 37 °C, 6 mm disc", "measurement": "inhibition zone diameter", "value": "10.9 ± 1 mm"}
{"SMILES": "Cc1cc(=O)nc(NC(=O)NCCCCCCNC(=O)NCCCCCCNC(=O)OCCOCCOCCOCCOCCOCCOCC(=O)N[C@@H](CCCCN)C(=O)N[C@@H](CCCCN)C(=O)N[C@@H](Cc2ccccc2)C(=O)N2CCC[C@H]2C(=O)N[C@@H](Cc2c[nH]c3ccccc23)C(=O)N[C@@H](Cc2c[nH]c3ccccc23)C(=O)N[C@@H](Cc2c[nH]c3ccccc23)C(=O)N2CCC[C@H]2C(=O)N[C@@H](Cc2ccccc2)C(=O)N[C@@H](CCCCN)C(=O)N[C@@H](CCCCN)C(N)=O)[nH]1", "test system": "ATCC 8937, RPMI medium", "setting": "24 h, 37 °C", "measurement": "LC99.9", "value": "30 µM"}
{"SMILES": "CC[C@H](C)[C@H](NC(=O)[C@H](CCCCN)NC(=O)[C@H](CCCCN)NC(=O)[C@H](CC(C)C)NC(=O)[C@H](CCCCN)NC(=O)[C@H](CCC(=O)O)NC(=O)[C@H](CCCCN)NC(=O)[C@@H](NC(=O)[C@H](CCCCN)NC(=O)[C@H](CC(N)=O)NC(=O)[C@H](CCCNC(=N)N)NC(=O)[C@H](Cc1ccccc1)NC(=O)[C@H](CCCCN)NC(=O)[C@H](CCCNC(=N)N)NC(=O)[C@H](CC(C)C)NC(=O)[C@H](CCCNC(=N)N)NC(=O)[C@H](CCCCN)NC(=O)[C@H](CCCNC(=N)N)NC(=O)[C@H](CC(C)C)NC(=O)[C@@H](N)CC(C)C)[C@@H](C)CC)C(=O)NCC(=O)N[C@@H](CCC(N)=O)C(=O)N[C@@H](CCCCN)C(=O)N[C@H](C(=O)N[C@@H](CCC(N)=O)C(=O)NCC(=O)N[C@@H](Cc1ccccc1)C(=O)N[C@H](C(=O)N1CCC[C@H]1C(=O)N[C@@H](CCCCN)C(=O)N[C@@H](CC(C)C)C(=O)N[C@H](C(=O)N1CCC[C@H]1C(=O)N[C@@H](CCCNC(=N)N)C(=O)N[C@H](C(=O)N[C@@H](CCC(=O)O)C(=O)N[C@@H](CO)C(=O)O)[C@@H](C)O)C(C)C)C(C)C)[C@@H](C)CC", "test": "inhibition zone", "test system": "D. J45b", "measurement": "lethal concentration", "value": "2.67 µM"}
{"SMILES": "C[C@@H](O)[C@H](N)C(=O)N[C@@H](CS)C(=O)N[C@@H](Cc1ccc(O)cc1)C(=O)N[C@@H](CS)C(=O)N[C@@H](CCCNC(=N)N)C(=O)N[C@H](C(=O)NCC(N)=O)[C@@H](C)O", "test": "bactericidal activity, virtual colony count", "test system": "ATCC 25922", "setting": "2 h", "measurement": "EC50", "value": "28.2 ± 3.27 µM"}
{"SMILES": "CNC(=O)c1cccc(-c2ccc(O[C@H]3O[C@H](CO)[C@@H](O)[C@H](O)[C@@H]3O)c(C)c2)c1", "test": "biofilm formation, inhibitor", "test system": "uropathogenic UTI89", "measurement": "IC50", "value": "160 nM"}
{"SMILES": "CC(C)C[C@H](NC(=O)[C@H](CCCNC(=N)N)NC(=O)CNC(=O)CNC(=O)[C@@H](N)CCCNC(=N)N)C(=O)N[C@H]1CSSC[C@@H](C(=O)N[C@H](C(=O)NCC(=O)N[C@@H](CCCNC(=N)N)C(=O)O)C(C)C)NC(=O)[C@H](C(C)C)NC(=O)[C@@H]2CSSC[C@H](NC(=O)[C@H](Cc3ccc(O)cc3)NC1=O)C(=O)N[C@@H](CCCNC(=N)N)C(=O)N[C@@H](CCCNC(=N)N)C(=O)N[C@@H](CCCNC(=N)N)C(=O)N[C@@H](Cc1ccccc1)C(=O)N2", "test": "bacterial growth", "test system": "W3110", "setting": "concentration not given, 4 h, surface-displayed peptide, with: IPTG 100 µM", "scale": "baseline: uninduced", "measurement": "log2 fold change", "value": "negative"}
{"SMILES": "CC[C@H](C)[C@H](NC(=O)[C@H](CO)NC(=O)[C@H](CO)NC(=O)[C@H](Cc1ccccc1)NC(=O)CN)C(=O)N[C@@H](Cc1ccccc1)C(=O)N[C@@H](CCCNC(=N)N)C(=O)NCC(=O)N[C@H](C(=O)N[C@@H](C)C(=O)N[C@@H](CCCCN)C(=O)N[C@@H](Cc1ccccc1)C(=O)N[C@@H](C)C(=O)N[C@@H](CO)C(=O)N[C@@H](CCCCN)C(=O)NCC(=O)N[C@@H](CC(C)C)C(=O)NCC(=O)N[C@@H](CCCCN)C(=O)N[C@@H](CC(=O)O)C(=O)N[C@@H](CC(C)C)C(=O)N[C@@H](C)C(=O)N[C@@H](CCCNC(=N)N)C(N)=O)C(C)C", "test system": "ATCC 8739", "setting": "2 × MIC", "measurement": "time to complete killing", "value": "30 min"}
{"note": "For quick reference, copied from above:"}
{"SMILES": "CNC(=O)c1cccc(-c2ccc(O[C@H]3O[C@H](CO)[C@@H](O)[C@H](O)[C@@H]3O)c(C)c2)c1", "test": "biofilm formation, inhibitor", "test system": "uropathogenic UTI89", "measurement": "IC50", "value": "160 nM"}
